Results collected from several papers.
Protocols differ between the studies behind these lines.
TEK: Angiopoietin-1 receptor (TEK, Homo sapiens, UniProt Q02763)

O=C=[N][Ru-4]123([n]4c5ccc(O)cc5c5c6c(c7cc(F)c[n+]1c7c54)C(=O)NC6=O)[S+]1CC[S+]2CC[S+]3CC1 (stereo not drawn) — remaining activity (TEK (Homo sapiens, UniProt Q02763, Y897S); enzyme activity; 100 nM, human enzyme, together with: 10 µM ATP; baseline: untreated): 108%
O=c1c(-c2ccc(Cl)c(CN3CCOCC3)c2)coc2cc(O)ccc12 — remaining activity (TEK; enzyme activity, inhibitor; 1 µM): 88%
CCn1cc(C(=O)O)c(=O)c2c(N)c(F)c(NC3CCCCC3)cc21 — inhibition (TEK; kinase activity; 0.1 µM, together with: ATP at Km): 3.8%
CN1CCN(Cc2ccc(NC(=O)c3cccc(C#Cc4cnc(N)c5ncccc45)c3)cc2C(F)(F)F)CC1 — remaining binding (TEK; cell-free assay, competition with immobilised ligand; 0.5 µM): 0.6%
COc1cc(-n2cc3cc(F)cc(C(N)=O)c3n2)cc(Cl)c1C1CC(O)(CCO)Cc2ccccc21 (stereo not drawn) — inhibition (TEK; enzyme activity, inhibitor; 10 µM): 0.57%
O=C(Nc1ccc(Oc2ncnc3[nH]cc(-c4ccccc4)c23)c(F)c1)c1c2n(n(-c3cc(F)ccc3F)c1=O)CCCC2 — inhibition (TEK; enzyme activity, inhibitor; 0.5 µM): 79%
C=CC(=O)N1Cc2nc(-c3cc(-c4cc(Cl)cnc4Cl)c(F)cc3F)n(-c3ccncn3)c2C1 — inhibition (TEK; cell-free assay; 1 µM): 8%
C[C@H]1CN(C(=O)c2cn(-c3ccnc(N)n3)c3cc(C#CC4(O)CCCCC4)ccc23)CCN1 — inhibition (TEK; enzyme activity, inhibitor, FRET; 1 µM): 3%
C=C1CCCCCCCCCC(CO)C1=O (stereo not drawn) — remaining signal (TEK; cell-free assay; 10 µM): 90%
Cc1ccc(-c2c(/C=C(\C#N)C(=O)NC(C)C)n(CCCO)c3ncnc(N)c23)cc1 — remaining binding (TEK; cell-free assay, competition with immobilised ligand; 1 µM): 62%
Cc1cccc(O[C@H]2CCC[C@@H](C(C)CNCc3ccncc3)C2)c1 (relative stereo) — inhibition (TEK; cell-free assay; 1 µM): 9%
NC(=O)C[C@H]1CCc2sc3ncnc(O[C@H]4CC[C@H](N5CCOCC5)CC4)c3c21 — inhibition (TEK; enzyme activity, inhibitor; 10 µM): 2%
COc1ccc(NC(=O)Nc2ccc3c(c2)C(=O)N(C(C)CO)CC(C)C(CN(C)Cc2ccc4c(c2)OCO4)O3)cc1 (stereo not drawn) — remaining binding (TEK; binding, competition with immobilised ligand; 10 µM): 97%
Cc1ccc(C(=O)Nc2ccc(CN3CCN(C)CC3)c(C(F)(F)F)c2)cc1C#Cc1cnc2cccnn12 — upper asymptote (TEK; NanoBRET target engagement; human cells): 96.8
Nc1ncc(-c2cc(-c3cnn(CC(F)(F)F)c3)ncc2F)nc1C(=O)NC1CNCC(F)C1 (stereo not drawn) — remaining activity (TEK; enzyme activity; 1 µM; baseline: DMSO control): 107%
CN1CCN(Cc2ccc(-c3ccc(CO[C@H]4CCC[C@@H]4NC(=O)c4cc(-c5cnn(C)c5)cnc4N)cc3)cc2)CC1 — inhibition (TEK; enzyme activity, inhibitor; 0.1 µM): 9%
CCN1CCN(Cc2ccc(C(=O)Nc3ccc(C)c(NCc4cnc5[nH]ccc5c4OC)c3)cc2C(F)(F)F)CC1 — remaining binding (TEK; binding, competition with immobilised ligand; 1 µM): 0.35%
COc1cc(Nc2nc(C)cc(-c3cnn4nc(OC)ccc34)n2)cc(C(F)(F)F)c1 — remaining binding (TEK; binding, competition with immobilised ligand; 1 µM): 100%
CC(C)=CC1OC(C)(C)C2C=C3C(=O)C(Cl)=CC(O)C3C3C(O)C4OC4C(=O)C132 (stereo not drawn) — remaining binding (TEK; cell-free assay, competition with immobilised ligand; 10 µM): 100%
CCN1CCN(Cc2ccc(NC(=O)c3ccc(C)c(NC(=O)c4cncc(-c5cccs5)c4)c3)cc2C(F)(F)F)CC1 — remaining binding (TEK; binding, competition with immobilised ligand; 1 µM): 11%
C=CC(=O)Nc1cccc(-c2cnc3[nH]cc(C(=O)NC(C)(C)C)c3n2)c1 — inhibition (TEK; enzyme activity, inhibitor; 0.1 µM): 0%

Excerpt of the above:
CC(C)=CC1OC(C)(C)C2C=C3C(=O)C(Cl)=CC(O)C3C3C(O)C4OC4C(=O)C132 (stereo not drawn) — remaining binding (TEK; cell-free assay, competition with immobilised ligand; 10 µM): 100%
CCN1CCN(Cc2ccc(NC(=O)c3ccc(C)c(NC(=O)c4cncc(-c5cccs5)c4)c3)cc2C(F)(F)F)CC1 — remaining binding (TEK; binding, competition with immobilised ligand; 1 µM): 11%
